# Measured values pooled from the literature.
# Each numbered part is a random draw from the data of one study; scales do not carry over between parts.

# Set 1
# Target: Histone acetyltransferase KAT6A, both winged helices, GST fusion (KAT6A, Homo sapiens, UniProt Q92794, residues 1-181)
# Technique: protein binding microarray
# Form: double-stranded DNA, one strand shown
# Medium: in vitro
# Concentration: not given
# Setting: 8-mer, flanks averaged, mean of 2 arrays, mostly near background
# Baseline: not given
# Reading: higher = stronger binding
# Construct (chain): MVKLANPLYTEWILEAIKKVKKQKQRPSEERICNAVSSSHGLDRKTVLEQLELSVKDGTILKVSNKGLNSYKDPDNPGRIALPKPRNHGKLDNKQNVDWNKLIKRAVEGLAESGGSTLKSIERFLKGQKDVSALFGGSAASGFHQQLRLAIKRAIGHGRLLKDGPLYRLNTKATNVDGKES
Oligonucleotide,E-score
AAGGGTAG,-0.0175
ACTGCTCG,-0.0429
CGGGATCC,0.25
CGCGGGAC,0.294
ATCGGCCC,0.223
GCAACAGA,0.0256
CATTGGGC,-0.104
AGCATCAT,-0.168
CGAGTTAG,-0.0341
ATGTCGGG,0.14
GGTCCAGA,-0.0536
CAATTTAG,-0.245
GCTACCGA,0.113
CGCGAGAG,0.242
ATGTTCCC,0.0278
CAAGACCA,-0.155
GAATCCGA,0.124
CGCACGTA,0.0373
ATGGCAGA,-0.0218
GCAACCCC,0.0939
ATCCGCGC,0.285

# Set 2
# Target: Hepatocyte nuclear factor 3-alpha (Foxa1, Mus musculus, UniProt P35582, residues 1-468, full length assumed)
# Technique: EMSA with sequencing
# Form: double-stranded DNA, one strand shown
# Medium: in vitro
# Concentration: 10 and 20 nM
# Setting: whole designed probe, mean of two concentrations, ends assumed
# Baseline: negative control set to 0
# Reading: higher = stronger binding
# Constant ends, left off below: GTGAGCGGTGCCCATTGATGGGGAAC … TTTCACTGGGATCGTGGGGAC
# Target sequence (chain): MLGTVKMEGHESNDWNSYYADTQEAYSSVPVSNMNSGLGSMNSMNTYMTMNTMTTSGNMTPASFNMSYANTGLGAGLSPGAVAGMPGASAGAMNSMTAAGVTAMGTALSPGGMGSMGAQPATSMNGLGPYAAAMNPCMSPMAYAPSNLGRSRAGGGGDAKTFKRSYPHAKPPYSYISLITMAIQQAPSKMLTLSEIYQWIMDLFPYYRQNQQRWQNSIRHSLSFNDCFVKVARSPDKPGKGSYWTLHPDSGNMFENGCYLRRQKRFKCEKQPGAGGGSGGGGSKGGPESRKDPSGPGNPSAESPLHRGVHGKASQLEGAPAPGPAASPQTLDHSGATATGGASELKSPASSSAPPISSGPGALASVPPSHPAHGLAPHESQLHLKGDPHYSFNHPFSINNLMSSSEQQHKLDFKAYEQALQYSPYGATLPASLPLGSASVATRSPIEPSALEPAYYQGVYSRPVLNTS
Oligonucleotide,normalised bound fraction
TACTGATATAAAAATAGGCATATAGACCAATGGAACAGAATAGAGAACCCAGAAATAAAACCAAATACTTACAGCCAACAGATTTTTGACAAAGCAAACAAAAACATGAAGTGGGGAAAGGAAACCCTATTGAACAAATAATGGAGGGATGTTTAGCAAGCCACATGTAGAAGAATAAAACTGGAAACTCATC,0.483 ratio
CAGGACATAGCACACTTTTGAATTCATTTTACAACTATTTATTGAGTGCTTTTTATGTGCCAGATTCCCCCCAGCTCCCACTGGTGGTACAGTGTAATTTTAGCTGTGAAAACATGCACTTTTCTCAGCCTTCATTATCATTCTAGTGAAGGGGGCAGATGGTAAACAACTGAACAATTAAGTAATCTTGACA,0.152 ratio
ATCTTCCCCCTCTTCCTTGCCCCACCAGCTCACCTTCCCGGGTCAAAGTAAACAAGTGTTTACTTTGAAGCCGGCATTCGTTAACCCTCTTCTGGCGCAAACTGCTGTTTGCTCTGGATGAATCATGGTCCTTTGGCGACGCCAGGCTCCGGGAGAGCAAAGCACCGTGTCAGGGCCATGATCCGGGGTGGCC,0.453 ratio
CTCCAGGGTAGTTGTCCTTCCTGTGGCTGCTCACTGATCCAGGCTACTTTGATCTTGTGACTCAAAGTTCAACAAAATGTGGATGCGTCATTTTATTTACACTTCAATGGCCAGAACATACGAATTGGCCTCATCCAGTTGCAAGAAGTTTGGGAAATGTAGCCTTCCATATTTACAGGAATAAATGAAAAAC,0.29 ratio
GGAGCTAAAAATCAGCTTGTCTGAAAATTCTCATAAAATTTGCAAAACCCTGAAACTGAAAGTTCTGCAGTGCAGAGGCATTTCCATGCAATGTAAACAAGGTCAGTTAGGGCCTCTTGGAACTATGCTGGGATGGGGGCCACTGTCAGTCAAGCTACTGTTGGGCTTGGGATGAGGATGGAGGGAACTGACC,0.408 ratio
AAAGAAAAAAAAAAAAGAAATACCGAAGTGGTTCCCCAAGGCACCAATTTAAAGTGTATATGTGCAGTGCAGGGTTACTGGACCAAGGCACAGTGTAATCTGCGAAATTTTATTTTTTGTTTTCTTTTTCCTAAGATGTTCCTTACTCCCAGTTACATAAAAATGTGTATTACAAGCAAACAAAAATTAACAG,0.123 ratio

# Set 3
# Target: Fragile X messenger ribonucleoprotein 1, C-terminal low-complexity region (Fmr1, Mus musculus, UniProt P35922)
# Technique: RNA Bind-n-Seq
# Form: RNA
# Medium: in vitro
# Concentration: 200 nM
# Setting: whole 134-nt RNA, ends assumed
# Added: 150 mM LiCl
# Baseline: input library
# Reading: higher = stronger binding
# Each molecule: 7-deaza-guanosine replaces G
# Constant ends, left off below: GGGAGUUCUACAGUCCGACGAUC … UGGAAUUCUCGGGUGUCAAGG
Oligonucleotide,log2 enrichment
UCCUGUGCUACACAUCGUAUGUACCGAAUCGGUUUUUUGGUUUUUUGGGUUUUUUGGGGAAAGUAUUAUGUUACGCCGUUCGGAUCUGCA,-1.38
CCUGUGCUACACAUCGUAUGUACCGAAUCGGCCCCCCCGGGCCCCCCCGGCCCCCCCGGGGAAAGUAUUAUGUUACGCCGUUCGGAUCUG,0.0943
UCAAGUCCUGUGCUACACAUCGUAUGUACCGAAUCGGGAGGGAAAAAGGGUGGGAAAGUAUUAUGUUACGCCGUUCGGAUCUGCACUUCC,-1.28
GUCCUGUGCUACACAUCGUAUGUACCGAAUCAAAUUUUUAAACCCCCAAAUUUUUAAAAAAGUAUUAUGUUACGCCGUUCGGAUCUGCAC,-0.267
CUCAAGUCCUGUGCUACACAUCGUAUGUACCGAAUCGGUUUUUGGAAAGGUGGAAAGUAUUAUGUUACGCCGUUCGGAUCUGCACUUCCA,-0.404
UGGCCCUGGUGGCAUGCGGGGAGGAAGAGGUGGCAUCAUGGAUCGUGGUGGUCCCGGUGGAAUGUUCAGAGGUGGCCGUGGUGGAGACAG,0.468
UCAAGUCCUGUGCUACACAUCGUAUGUACCGAAUCGGCCCGGGCCCGGGCCCGGAAAGUAUUAUGUUACGCCGUUCGGAUCUGCACUUCC,-2.19
GCAGGAAGUAAAAACAAAUGGAAAUGCUUCGGAUAGUGGCAGGGGUGGGGGUUGCUAGGGAAAGGGUGGGAUGGGAGUGGGUAAAGAGUU,0.783
CUCAAGUCCUGUGCUACACAUCGUAUGUACCGAAUCGGGGCCGGCCGGGCCGGAAAGUAUUAUGUUACGCCGUUCGGAUCUGCACUUCCA,0.667
UCCGCGUGUGAAGUUUUUCUCGGCUGCAUCAUGGGUGCCACAUUCUUUUUGUUGUUUUCAGUGCUGCAAAAGCCCCAUAUCUGGCCAAGU,-0.0111
AAGUCCUGUGCUACACAUCGUAUGUACCGAAUCGGUUUGGAAAAAAAGGUUUUUGGAAAGUAUUAUGUUACGCCGUUCGGAUCUGCACUU,-3.04

# Set 4
# Target: Phosphate system positive regulatory protein PHO4, full length, GST-tagged (PHO4, Saccharomyces cerevisiae, UniProt P07270, residues 1-312)
# Technique: competition protein-binding microarray
# Form: double-stranded DNA, one strand shown
# Medium: in vitro
# Concentration: 2 µM
# Setting: whole 60-bp probe, lowest competitor level
# Added: Cbf1 competitor, 0.05 µM
# Reading: higher = stronger binding
# Constant ends, left off below: … GTCTTGATTCGCTTGACGCTGCTG
# Construct (chain): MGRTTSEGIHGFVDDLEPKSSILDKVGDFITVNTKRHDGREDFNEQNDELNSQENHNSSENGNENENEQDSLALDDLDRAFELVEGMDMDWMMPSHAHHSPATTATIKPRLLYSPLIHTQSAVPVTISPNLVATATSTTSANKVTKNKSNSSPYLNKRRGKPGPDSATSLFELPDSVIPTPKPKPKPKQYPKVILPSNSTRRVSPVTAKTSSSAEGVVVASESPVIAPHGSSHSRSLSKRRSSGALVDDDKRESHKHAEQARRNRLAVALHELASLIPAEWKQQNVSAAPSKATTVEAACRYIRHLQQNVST
Oligonucleotide,fluorescence intensity [a.u.]
GGTTGCGAGAGAAGAGGCGTGTCGGAAAAAAAAACG,8500
GACGCTGAGCTCCATCACGGGCTACGCCAGCGCAGC,4870
TAAGCACCAAATGGAGACGTGGCCGCACCATAATCA,5490
GTAACAGGTTTCCATCACGTGCTTTTTAGGGTTTTG,17700
CGTCCTAGTGATTGCAAAGTGGGTGCCATGAGGAAG,6850
TGCGCAACAACTTGCATTGTGGGTGTATGTCTAGAA,6090
GAAAAGCTTATTTTTTTCGTGCAAACTCCGTTCTTA,3490
CATACCCAACCTTGAGAAGTGGGTGAAGATATTTGT,3910
GTCTTGTCTCATTGGGCCGTGGGTGTCCCCACTTCA,6080
CTTCTGTAAATTTGCTATGTGGGTGGACGCGCCCCG,4780
GTTGACTGTCCCCGTCACGATATCTTAATGAGTACT,5280
CTAACGAAGGTTTGGCCAGTGGGTGACAAGCCAAGT,3670
CTAACGAAGGTTTGTCACACTACTTACAAGCCAAGT,4180
CTTCTGTAAATTTGGAAGGTGGGTGGACGCGCCCCG,4320
GTCTTGTCTCATTGTCACCGGACTTTCCCCACTTCA,3900
GTACAATAACATATGCACATGGCAACGGGTCTTGGT,12100
TACCTTAACCCCGGCACCGTGCGATGCAGATCCGCC,8030

# Some of these lines once more (set 2):
Oligonucleotide,normalised bound fraction
TACTGATATAAAAATAGGCATATAGACCAATGGAACAGAATAGAGAACCCAGAAATAAAACCAAATACTTACAGCCAACAGATTTTTGACAAAGCAAACAAAAACATGAAGTGGGGAAAGGAAACCCTATTGAACAAATAATGGAGGGATGTTTAGCAAGCCACATGTAGAAGAATAAAACTGGAAACTCATC,0.483 ratio
CAGGACATAGCACACTTTTGAATTCATTTTACAACTATTTATTGAGTGCTTTTTATGTGCCAGATTCCCCCCAGCTCCCACTGGTGGTACAGTGTAATTTTAGCTGTGAAAACATGCACTTTTCTCAGCCTTCATTATCATTCTAGTGAAGGGGGCAGATGGTAAACAACTGAACAATTAAGTAATCTTGACA,0.152 ratio
ATCTTCCCCCTCTTCCTTGCCCCACCAGCTCACCTTCCCGGGTCAAAGTAAACAAGTGTTTACTTTGAAGCCGGCATTCGTTAACCCTCTTCTGGCGCAAACTGCTGTTTGCTCTGGATGAATCATGGTCCTTTGGCGACGCCAGGCTCCGGGAGAGCAAAGCACCGTGTCAGGGCCATGATCCGGGGTGGCC,0.453 ratio
CTCCAGGGTAGTTGTCCTTCCTGTGGCTGCTCACTGATCCAGGCTACTTTGATCTTGTGACTCAAAGTTCAACAAAATGTGGATGCGTCATTTTATTTACACTTCAATGGCCAGAACATACGAATTGGCCTCATCCAGTTGCAAGAAGTTTGGGAAATGTAGCCTTCCATATTTACAGGAATAAATGAAAAAC,0.29 ratio
GGAGCTAAAAATCAGCTTGTCTGAAAATTCTCATAAAATTTGCAAAACCCTGAAACTGAAAGTTCTGCAGTGCAGAGGCATTTCCATGCAATGTAAACAAGGTCAGTTAGGGCCTCTTGGAACTATGCTGGGATGGGGGCCACTGTCAGTCAAGCTACTGTTGGGCTTGGGATGAGGATGGAGGGAACTGACC,0.408 ratio
AAAGAAAAAAAAAAAAGAAATACCGAAGTGGTTCCCCAAGGCACCAATTTAAAGTGTATATGTGCAGTGCAGGGTTACTGGACCAAGGCACAGTGTAATCTGCGAAATTTTATTTTTTGTTTTCTTTTTCCTAAGATGTTCCTTACTCCCAGTTACATAAAAATGTGTATTACAAGCAAACAAAAATTAACAG,0.123 ratio
